Measured values collected from several papers.
± marks the error that the study gave.

SMILES	assay	test system	setting	scale	measurement	value
C[C@@H](NC(=O)N1C(=O)[C@H](Cc2ccnc(N)c2)[C@H]1C(=O)O)C1CCCCC1		healthy Chinese adult volunteers	continuous intravenous infusion, dose not given, 5.0 days, CTCAE 5.0, all doses		decreased hemoglobin	5%
Clc1ccc(Cl)c(-c2ccccc2Cl)c1		fresh water	20 °C, SSP sampler, 100 µm		log K(PDMS-water)	4.91 ± 0.03
CCc1ccc(CC/C=C/c2ccc3c(c2)C(=O)CC3)cc1		Sprague-Dawley rat, female	oral, 120 mg/kg/day, 14 days		Erythrocyte percentage	10.7%
O=C(O)CCC(CP(=O)(O)O)C(=O)O (stereo not drawn)		rat, processed derivatized plasma	4 µg/mL, 18 h, 10 °C, autosampler stability	relative to: nominal concentration	relative error	6.7%
CO[C@H]1C[C@@H]2CC[C@@H](C)[C@@](O)(O2)C(=O)C(=O)N2CCCC[C@H]2C(=O)O[C@H]([C@H](C)C[C@@H]2CC[C@@H](OC(=O)NCCOCCOCCOCCOCCOCCOCCOCCOCCC(=O)N3CCc4cc(Cn5nc(-c6ccc7oc(N)nc7c6)c6c(N)ncnc65)ccc4C3)[C@H](OC)C2)C[C@@H](O)[C@H](C)/C=C(\C)[C@@H](O)[C@@H](OC)C(=O)[C@H](C)C[C@H](C)/C=C/C=C/C=C/1C		patients with advanced solid tumours	intravenous, 16 mg weekly, grade 3 or higher		anaemia incidence	25%
NCCCS(=O)(=O)O		human, plasma	oral, 265 mg twice daily, steady state week 65		MRT(0-inf)	5.2 h
CN1CCN(S(=O)(=O)c2cc([N+](=O)[O-])ccc2N(CCOS(C)(=O)=O)CCOS(C)(=O)=O)CC1		naive female NSG mice, plasma	intraperitoneal, 5 mg/kg		AUMC(0-inf)	0.16 µM·h²
COc1cc(C2C3=C(COC3=O)N(CCO)c3cc4c(cc32)CCC4)cc(OC)c1OC (stereo not drawn)		female Sprague-Dawley rats	intraperitoneal, 100 mg/kg, 72 h, single dose, mean		body weight	225 g
CC/C(=C(\c1ccccc1)c1ccc(OCCN(C)C)cc1)c1ccccc1		CD-1 mouse, male, plasma	intraperitoneal, 1 mg/kg		Tmax	2 h
COc1cc2c(Oc3ccc4[nH]c(C)cc4c3F)ccnc2cc1OCC1(N)CC1		paediatric recurrent refractory sarcoma	8 mg		grade 1 or 2 Triglyceride elevation	0%
Cc1c(COC(=O)[C@@H]2[C@H](/C=C(\Cl)C(F)(F)F)C2(C)C)cccc1-c1ccccc1 (racemic)		pooled human liver cytosol			CLint	0 µL/min/mg
c1csc(-c2ccc(-c3cccs3)s2)c1		C57BL/6J mice, diet-induced obese	intraperitoneal, 5 mg/kg daily, 14 days	relative to: vehicle	food intake	no effect
CC(C)C[C@@H]1NC(=O)CNC(=O)[C@H](CC(N)=O)NC(=O)[C@H](CCCCN)NC(=O)[C@H]([C@@H](C)O)NC(=O)[C@@H]2CSSC[C@@H]3NC(=O)[C@H]([C@@H](C)O)NC(=O)CNC(=O)CNC(=O)[C@H](C(C)C)NC(=O)[C@@H]4CSSC[C@H](NC(=O)[C@H]([C@@H](C)O)NC(=O)[C@H](CSSC[C@H](NC(=O)[C@H](C(C)C)NC(=O)[C@@H]5CCCN5C1=O)C(=O)NCC(=O)N[C@@H](CCC(=O)O)C(=O)N[C@@H]([C@@H](C)O)C(=O)N4)NC(=O)CNC(=O)[C@@H]1CCCN1C(=O)[C@H]([C@@H](C)O)NC(=O)[C@H](CC(N)=O)NC3=O)C(=O)N[C@@H](CO)C(=O)N[C@@H](Cc1c[nH]c3ccccc13)C(=O)N1CCC[C@H]1C(=O)N[C@@H](C(C)C)C(=O)N2	HPLC	water	180 µM, 14 days, 37 °C, deamidation stability		remaining peptide	98.1 ± 0.3%
CN[C@H]1CC[C@@H](c2ccc(Cl)c(Cl)c2)c2ccccc21		CD-1 mouse, male, plasma	intraperitoneal, 1 mg/kg		elimination rate constant	9.42e-05 s⁻¹
C[C@]1(O)C[C@@](N)(c2ccc(-c3nc4n(c3-c3ccccc3)COc3ccncc3-4)cc2)C1		human, advanced or metastatic solid tumours	16 mg once daily, dose-ranging cohort		patients with any TEAE	100%
CC(C)CC(=O)OC[C@H]1O[C@@](C#N)(c2ccc3c(N)ncnn23)[C@H](O)[C@@H]1O	plasma protein binding	mouse plasma	90 µM, time not given		recovery	93.7%
CC(C)[C@@H]1NC(=O)[C@@H]2CSSC[C@@H]3NC(=O)[C@H]([C@@H](C)O)NC(=O)[C@@H]4CSSC[C@H](NC(=O)[C@H](C(C)C)NC(=O)[C@@H]5CCCN5C(=O)[C@H](CCCCN)NC(=O)CNC(=O)[C@H](CC(N)=O)NC(=O)[C@H](CCCNC(=N)N)NC(=O)[C@H]([C@@H](C)O)NC(=O)[C@H](CSSC[C@H](NC(=O)[C@H]([C@@H](C)O)NC(=O)CNC(=O)CNC1=O)C(=O)N[C@@H](CC(N)=O)C(=O)N[C@@H]([C@@H](C)O)C(=O)N1CCC[C@H]1C(=O)NCC(=O)N4)NC(=O)[C@H](C(C)C)NC(=O)[C@@H]1CCCN1C(=O)[C@H](Cc1c[nH]c4ccccc14)NC(=O)[C@H](CO)NC3=O)C(=O)NCC(=O)N[C@@H](CCC(=O)O)C(=O)N[C@@H]([C@@H](C)O)C(=O)N2	HPLC	ammonium bicarbonate	180 µM, 7 days, pH 9.0, 25 °C, deamidation stability		remaining peptide	92.8 ± 5.1%
COc1ccnc(C(=O)N[C@H]2COC(=O)[C@H](Cc3ccccc3)[C@@H](OC(=O)C(C)C)[C@H](C)OC2=O)c1OCOC(=O)C(C)C		Swiss Lake sand sediment, aerobic dark	20 °C		DT50 water	0.56 days
CC(=O)c1c(C)c2cnc(Nc3ccc(C4CCN(CCS(C)(=O)=O)CC4)cn3)nc2n(C2CCCC2)c1=O		human patients, plasma	oral, 100 mg twice daily, day 21 multiple doses, together with: fulvestrant		clearance	1780 mL/min
CCCCc1nc2cc(/C=C/C(=O)NO)ccc2n1CCN(CC)CC		mouse, SET-2 subcutaneous xenograft	125 mg/kg every other day, day 18	relative to: baseline	body weight	95%

SMILES	assay	test system	setting	scale	measurement	value
CN1CCN(c2ccc(Nc3nccc(-c4cccc([N+](=O)[O-])c4)n3)cc2C(F)(F)F)CC1		zebrafish embryos	25 µM, 5 d		toxicity	0%
O[C@H]1CCCN[C@@H]1CCCn1cnc2c(Cl)c(Cl)ccc21		healthy CYP2D6 extensive/ultrarapid metabolizers, plasma	oral, dose not given, together with: pirfenidone		AUClast geometric LS mean	0.896 µg·h/mL
c1cc2ccc3cccc4ccc(c1)c2c34		fresh water	12 (unit not given), 20 °C, S100 sampler, 100 µm		log K(PDMS-water)	4.3 ± 0.01
CCCSc1ccc2nc(NC(=O)OC)[nH]c2c1		mouse, blood	oral, 50 mg/kg, tolerability, mean		monocytes	1.38%
N=C(N)NCCC[C@@H](NC(=O)[C@@H](N)Cc1ccccc1)C(=O)N[C@@H](Cc1ccccc1)C(=O)N[C@@H](CCCCN)C(N)=O	LC-MS	human	15 mg, 23.83 h		median fraction excreted in urine	2.35%
Clc1ccc(Cl)c(-c2c(Cl)c(Cl)cc(Cl)c2Cl)c1		polyethylene-water partitioning	PCB compilation	relative to: maximum over minimum K	literature range factor	1.1
CC(C)C[C@H](NC(=O)[C@H](CCCCN)NC(=O)OCC1c2ccccc2-c2ccccc21)C(=O)N[C@H](C(=O)N[C@@H](Cc1ccccc1)C(=O)N[C@@H](Cc1ccccc1)C(=O)N[C@@H](CCCCN)C(=O)NCC(=O)N[C@@H](Cc1ccccc1)C(=O)N[C@@H](C)C(=O)N[C@@H](Cc1c[nH]c2ccccc12)C(=O)N[C@@H](CC(N)=O)C(=O)N[C@H](C(=O)N[C@H]1CSSC[C@@H](C(=O)N[C@@H](Cc2c[nH]cn2)C(=O)N[C@@H](CCCNC(=N)N)C(=O)N[C@@H](CCCNC(=N)N)C(=O)N[C@@H](C)C(=O)N[C@@H](CC(N)=O)C(N)=O)NC(=O)[C@H](C(C)C)NC(=O)[C@H](CCCNC(=N)N)NC(=O)[C@H](C(C)C)NC(=O)CNC(=O)[C@H](CC(N)=O)NC(=O)[C@H](CCCNC(=N)N)NC(=O)[C@H](Cc2ccc(O)cc2)NC(=O)[C@H](C(C)C)NC1=O)C(C)C)C(C)C		ICR mice, serum	intraperitoneal, 10 mg/kg, day 5		creatinine	82.9 ± 3.1 µmol/L
NCCCC[C@@H]1NC(=O)[C@@H](Cc2c[nH]c3ccccc23)NC(=O)[C@H](c2ccccc2)NC(=O)[C@@H]2C[C@@H](OC(=O)NCCN)CN2C(=O)[C@H](Cc2ccccc2)NC(=O)[C@H](Cc2ccc(OCc3ccccc3)cc2)NC1=O		healthy human volunteers	600 µg twice daily		subjects with adverse event Diarrhoea	56%
C=CCNc1c(O)cc2c(O)c1C[C@@H](C)C[C@H](OC)[C@H](O)[C@@H](C)/C=C(\C)[C@H](OC(N)=O)[C@@H](OC)/C=C\C=C(/C)C(=O)N2		unresectable or metastatic STS, GIST, other	intravenous, 300 mg/m^2		patients with constipation TEAE	0%
O=C(O)CCCOc1ccc(F)cc1-c1cc(-c2ccccc2C(F)(F)F)n(-c2ccccc2)n1		female Crl:CD(SD) rats, lungs	intravenous, 25 µg/kg, 1 d		organ weight	0.98 ± 0.07 g
CC(C)(c1ccccc1)c1cc(-n2nc3ccccc3n2)c(O)c(C(C)(C)c2ccccc2)c1		EpiSkin reconstructed epidermis	concentration not given, 36 h		amount in receptor fluid	not detected
c1ccc2c(c1)ccc1c3ccccc3ccc21		fresh water	12 (unit not given), 20 °C, S30-2 sampler, 30 µm		log K(PDMS-water)	4.75 ± 0.01
CC(C)n1c(C2CCNCC2)nc2c([N+](=O)[O-])c(Br)c(Br)cc21		patients with AML	125 mg, drug-induced liver injury		AE leading to discontinuation	2%
CN1CC[C@@H](c2c(O)cc(O)c3c(=O)cc(-c4ccc(C(F)(F)F)cc4Cl)oc23)[C@@H]1CO	item: Thrombocytopenia	relapsed AML	oral, 150 mg, grade 3-4, intermittent dosing		patients with adverse event	25%
C[C@@H]1OC(=O)NN=C1c1ccc(-c2ccc(F)cc2)c(C(F)(F)F)c1	phase I trial, item: Diarrhoea worst grade 1	human patients	5 mg loading then 0.25 mg daily		patients with adverse event	0%
O=C(Nc1ccccc1)C1CCN(C(=O)Oc2cccnc2)CC1	adverse event reporting	healthy women	oral, 60 mg		subjects with Syncope adverse event	0%
COc1ccc(-c2c(-c3ccc(C#N)c(F)c3)nc(N3CCC(N)CC3)n(C)c2=O)cc1F	item: Pyrexia	human patients	oral, dose not given, dose escalation, NG		serious adverse event incidence	2%
CCN1[C@@H](C(=O)NC23CCC(C(=O)O)(CC2)CC3)[C@H](c2cccc(Cl)c2F)[C@]2(C(=O)Nc3cc(Cl)ccc32)C12CCCCC2		patients with advanced solid tumours	oral, 150 mg		Anemia incidence	62.5%
C=CC(=O)Nc1cc(Nc2nccc(Nc3cc(Cl)c(F)cc3C(C)(C)O)n2)c(OC)cc1N1CC[C@@H](N(C)C)C1		human	oral, dose not given, phase I clinical		patients with adverse event Fatigue	21.6%

For quick reference, copied from above:
SMILES	assay	test system	setting	scale	measurement	value
CCc1ccc(CC/C=C/c2ccc3c(c2)C(=O)CC3)cc1		Sprague-Dawley rat, female	oral, 120 mg/kg/day, 14 days		Erythrocyte percentage	10.7%
COc1cc2c(Oc3ccc4[nH]c(C)cc4c3F)ccnc2cc1OCC1(N)CC1		paediatric recurrent refractory sarcoma	8 mg		grade 1 or 2 Triglyceride elevation	0%
Cc1c(COC(=O)[C@@H]2[C@H](/C=C(\Cl)C(F)(F)F)C2(C)C)cccc1-c1ccccc1 (racemic)		pooled human liver cytosol			CLint	0 µL/min/mg
CC(=O)c1c(C)c2cnc(Nc3ccc(C4CCN(CCS(C)(=O)=O)CC4)cn3)nc2n(C2CCCC2)c1=O		human patients, plasma	oral, 100 mg twice daily, day 21 multiple doses, together with: fulvestrant		clearance	1780 mL/min
O=C(Nc1ccccc1)C1CCN(C(=O)Oc2cccnc2)CC1	adverse event reporting	healthy women	oral, 60 mg		subjects with Syncope adverse event	0%
Clc1ccc(Cl)c(-c2ccccc2Cl)c1		fresh water	20 °C, SSP sampler, 100 µm		log K(PDMS-water)	4.91 ± 0.03
